Measured values collected from several papers.
Compare with care: the assays were run in different laboratories. Numbers after ± are the reported error.
Organism: West Nile virus

COc1cc(NC(C)CCCN)c2ncccc2c1 (stereo not drawn)  inhibition (replicon reporter; Vero replicon cells; 50 µM, 24 h): < 0%
N#C[C@@]1(n2ccc(N)nc2=O)O[C@H](CO)[C@@H](O)[C@H]1O  EC50 (viral replication, cell-based): > 20 µM
Cl.ClCCN(CCCl)c1ccc(CCNc2ccnc3cc(Cl)ccc23)cc1  inhibition (viral replication, Rluc reporter replicon; Vero WNV replicon cells; 50 µM, 24 h): 99.5 ± 0.05%
Nc1ncnc2c1ncn2[C@@H]1O[C@@H]2COP(=O)(O)O[C@H]3[C@@H](O)[C@H](n4cnc5c(=O)[nH]cnc54)O[C@@H]3COP(=O)(O)O[C@H]2[C@H]1O  fold enrichment (RNA sequencing, refers to: organization, cell-cell junction, R-HSA-421270; HFF-1 cells; concentration not given, downregulated pathway; relative to: WNV-infected untreated cells): 5.15
O=C(N1CCC2(CC1)C[C@H](CN1CCCCS1(=O)=O)CCO2)C1(c2ccccc2)CCCC1  EC50 (viral replication; Vero): > 10 µM
O=c1ccn([C@@H]2O[C@H](CO)[C@@H](O)[C@H]2O)c(=S)[nH]1  EC50 (viral replication; BHK-21): 5.3 µM
CC(CCCN(CCCl)CCCl)Nc1ccnc2cc(Cl)ccc12 (stereo not drawn)  inhibition (replicon reporter; Vero replicon cells; 50 µM, 24 h): 99.8 ± 0.03%
N#Cc1c(Nc2ccc(F)cc2)n[nH]c1NS(=O)(=O)c1ccc2ccccc2c1  EC50 (viral replication; Vero 76, Kern 515): > 7.9 µM
NC(=O)c1nc(F)c[nH]c1=O  EC50 (viral replication; BHK-21): 36 µM

Excerpt of the above:
Nc1ncnc2c1ncn2[C@@H]1O[C@@H]2COP(=O)(O)O[C@H]3[C@@H](O)[C@H](n4cnc5c(=O)[nH]cnc54)O[C@@H]3COP(=O)(O)O[C@H]2[C@H]1O  fold enrichment (RNA sequencing, refers to: organization, cell-cell junction, R-HSA-421270; HFF-1 cells; concentration not given, downregulated pathway; relative to: WNV-infected untreated cells): 5.15
